Measurements gathered from unrelated publications.
Protocols differ between the studies behind these lines. ± marks the error that the study gave.
Cell line: PC-3

`COc1cc(CNC(=O)CCCC/C=C/C(C)C)ccc1OCc1cn(-c2ccc(C)cc2)nn1` gave a growth percent of 84.2% (SRB; 10 µM, 48 h).
The IC50 of `CC[C@]1([N+](=O)[O-])C(=O)c2ccccc2O[C@@H]1CC(=O)NC12CC3CC(CC(C3)C1)C2` is reported as 6.81 µM (cell growth or viability, SRB; 96 h).
With `COc1cc(CNC(=O)CCCC/C=C/C(C)C)ccc1OCc1cn(-c2ccc(Cl)cc2)nn1` the growth percent was 79.2% (SRB; 10 µM, 48 h).
`COC(=O)c1c(-c2ccc([N+](=O)[O-])cc2)c2n(c1C(=O)OC)CCn1cccc1-2` gave an IC50 of 82.3 µM (cell growth or viability, MTT; 48 h).
The growth percent of `COc1cc(CNC(=O)CCCC/C=C/C(C)C)ccc1OCc1cn(-c2ccc(Cl)c(Cl)c2)nn1` is reported as 77.1% (SRB; 10 µM, 48 h).
`COC(=O)c1c(-c2cc(OC)c(OC)c(OC)c2)c2n(c1C(=O)OC)CCn1cccc1-2` has an IC50 of 72.7 µM (cell growth or viability, MTT; 48 h).
Under “GRPR mRNA level”, `COc1cccc2c1C(=O)c1c(O)c3c(c(O)c1C2=O)C[C@@](O)(C(=O)CO)C[C@@H]3O[C@H]1C[C@H](N)[C@H](O)[C@H](C)O1` is recorded as 93.2 ± 7.11% (RT-qPCR; IC50 concentration, 72 h plus 24 h recovery; reference: untreated).
The IC50 of `CC(C)(C)NC(=O)C[C@H]1Oc2ccccc2C(=O)[C@]1(C)[N+](=O)[O-]` is reported as 10 µM (cell growth or viability, SRB; 96 h).
`O=c1[nH]nc(O)c2c(-c3cccc(Br)c3)c3n(c12)CCn1cccc1-3` has an IC50 of 66.3 µM (cell growth or viability, MTT; 48 h).
`C[C@]1([N+](=O)[O-])C(=O)c2ccccc2O[C@@H]1CC(=O)NC1CCCC1` has an IC50 of > 50 µM (cell growth or viability, SRB; 96 h).
For `COc1cc(CNC(=O)CCCC/C=C/C(C)C)ccc1OCc1cn(-c2cccc([N+](=O)[O-])c2)nn1`, the growth percent was 82.2% (SRB; 10 µM, 48 h).
`CC12CC3CC(C)(C1)CC(NC(=O)C[C@H]1Oc4ccccc4C(=O)[C@]1(C)[N+](=O)[O-])(C3)C2` gave an IC50 of 11.4 µM (cell growth or viability, SRB; 96 h).
`COC(=O)c1c(-c2ccc(OC)cc2)c2n(c1C(=O)OC)CCn1cccc1-2` has an IC50 of 74.4 µM (cell growth or viability, MTT; 48 h).
`COc1cc(CNC(=O)CCCC/C=C/C(C)C)ccc1OCc1cn(-c2ccccc2Cl)nn1` gave a growth percent of 80.6% (SRB; 10 µM, 48 h).
The IC50 of `O=c1[nH]nc(O)c2c(-c3cccc(O)c3)c3n(c12)CCn1cccc1-3` is reported as 84.4 µM (cell growth or viability, MTT; 48 h).
`CSCC[C@H](NC(=O)[C@H](CC(C)C)NC(=O)[C@H](Cc1c[nH]cn1)NC(=O)CNC(=O)[C@@H](NC(=O)[C@H](C)NC(=O)[C@H](Cc1c[nH]c2ccccc12)NC(=O)[C@H](CCC(N)=O)NC(=O)CCCCCNC(=O)[C@H](CCC(=O)NCCCC[C@@H]1NC(=O)[C@@H](Cc2ccc(O)cc2)NC(=O)[C@H](CC(=O)O)NC(=O)CNC(=O)[C@H](CCCNC(=N)N)NC1=O)NC(=O)CN1CCN(CC(=O)O)CCN(CC(=O)O)CC1)C(C)C)C(N)=O` [copper-64 labelled] gave an internalization of < 1% (up to 120 min, 37 °C; reference: added activity).
`COc1cc(C=C(C#N)C(=O)Nc2nnc(NC(=O)c3ccccc3)s2)ccc1O` gave an IC50 of 18.4 µM (cell growth or viability, MTT; 48 h).
For `CNC(=O)C[C@H]1Oc2ccccc2C(=O)[C@]1(C)[N+](=O)[O-]`, the IC50 was > 50 µM (cell growth or viability, SRB; 96 h).
With `C#C[C@@]1(O)[C@@H](CO)O[C@@H](n2cc(Br)c3c(N)ncnc32)[C@@H]1O` the GI50 was 0.107 µM (cell growth or viability, SRB; 48 h).
`O=c1[nH]nc(O)c2c(-c3cccc(Cl)c3)c3n(c12)CCn1cccc1-3` has an IC50 of 30 µM (cell growth or viability, MTT; 48 h).
The growth percent of `CCc1ccc(-n2cc(COc3ccc(CNC(=O)CCCC/C=C/C(C)C)cc3OC)nn2)cc1` is reported as 70.9% (SRB; 10 µM, 48 h).

Excerpt of the above:
`CSCC[C@H](NC(=O)[C@H](CC(C)C)NC(=O)[C@H](Cc1c[nH]cn1)NC(=O)CNC(=O)[C@@H](NC(=O)[C@H](C)NC(=O)[C@H](Cc1c[nH]c2ccccc12)NC(=O)[C@H](CCC(N)=O)NC(=O)CCCCCNC(=O)[C@H](CCC(=O)NCCCC[C@@H]1NC(=O)[C@@H](Cc2ccc(O)cc2)NC(=O)[C@H](CC(=O)O)NC(=O)CNC(=O)[C@H](CCCNC(=N)N)NC1=O)NC(=O)CN1CCN(CC(=O)O)CCN(CC(=O)O)CC1)C(C)C)C(N)=O` [copper-64 labelled] gave an internalization of < 1% (up to 120 min, 37 °C; reference: added activity).
`O=c1[nH]nc(O)c2c(-c3cccc(Br)c3)c3n(c12)CCn1cccc1-3` has an IC50 of 66.3 µM (cell growth or viability, MTT; 48 h).
With `C#C[C@@]1(O)[C@@H](CO)O[C@@H](n2cc(Br)c3c(N)ncnc32)[C@@H]1O` the GI50 was 0.107 µM (cell growth or viability, SRB; 48 h).
